Measurements collected from several papers.
T1: PSMG1/PSMG2 heterodimer (Homo sapiens); chain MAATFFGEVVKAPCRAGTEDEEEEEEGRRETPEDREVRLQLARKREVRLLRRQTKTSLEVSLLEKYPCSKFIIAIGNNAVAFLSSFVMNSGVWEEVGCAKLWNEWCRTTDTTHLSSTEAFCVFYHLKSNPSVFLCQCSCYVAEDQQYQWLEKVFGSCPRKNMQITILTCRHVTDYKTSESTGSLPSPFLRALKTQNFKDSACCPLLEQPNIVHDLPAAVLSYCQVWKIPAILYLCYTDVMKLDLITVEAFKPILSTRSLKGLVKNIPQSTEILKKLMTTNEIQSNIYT; chain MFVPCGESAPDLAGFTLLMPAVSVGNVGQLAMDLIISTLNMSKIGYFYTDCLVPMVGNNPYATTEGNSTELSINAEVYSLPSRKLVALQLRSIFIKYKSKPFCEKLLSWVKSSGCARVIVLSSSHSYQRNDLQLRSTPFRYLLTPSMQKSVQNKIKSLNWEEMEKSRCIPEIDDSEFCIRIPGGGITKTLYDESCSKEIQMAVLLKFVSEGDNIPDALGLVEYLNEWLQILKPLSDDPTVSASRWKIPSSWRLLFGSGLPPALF
B1: Pri1 (Saccharomyces cerevisiae, UniProt P10363); sequence looked up; chain MTNSVKTNGPSSSDMEYYYKSLYPFKHIFNWLNHSPKPSRDMINREFAMAFRSGAYKRYNSFNSVQDFKAQIEKANPDRFEIGAIYNKPPRERDTLLKSELKALEKELVFDIDMDDYDAFRTCCSGAQVCSKCWKFISLAMKITNTALREDFGYKDFIWVFSGRRGAHCWVSDKRARALTDVQRRNVLDYVNVIRDRNTDKRLALKRPYHPHLARSLEQLKPFFVSIMLEEQNPWEDDQHAIQTLLPALYDKQLIDSLKKYWLDNPRRSSKEKWNDIDQIATSLFKGPKQDSHIIKLRECKEDLVLMTLYPKLDVEVTKQTIHLLKAPFCIHPATGNVCVPIDESFAPEKAPKLIDLQTEMEKNNDVSLTALQPFINQFQAYVSSLLKNELGSVKREREDDDEPASLDF
B2: PRIM2 1-265 (Homo sapiens, UniProt P49643); sequence looked up; chain MEFSGRKWRKLRLAGDQRNASYPHCLQFYLQPPSENISLIEFENLAIDRVKLLKSVENLGVSYVKGTEQYQSKLESELRKLKFSYRENLEDEYEPRRRDHISHFILRLAYCQSEELRRWFIQQEMDLLRFRFSILPKDKIQDFLKDSQLQFEAISDEEKTLREQEIVASSPSLSGLKLGFESIYKIPFADALDLFRGRKVYLEDGFAYVPLKDIVAIILNEFRAKLSKALALTARSLPAVQSDERLQPLLNHLSHSYTGQDYSTQ
B3: ARP6 (Saccharomyces cerevisiae, UniProt Q12509); sequence looked up; chain METPPIVIDNGSYEIKFGPSTNKKPFRALNALAKDKFGTSYLSNHIKNIKDISSITFRRPHELGQLTLWELESCIWDYCLFNPSEFDGFDLKEGKGHHLVASESCMTLPELSKHADQVIFEEYEFDSLFKSPVAVFVPFTKSYKGEMRTISGKDEDIDIVRGNSDSTNSTSSESKNAQDSGSDYHDFQLVIDSGFNCTWIIPVLKGIPYYKAVKKLDIGGRFLTGLLKETLSFRHYNMMDETILVNNIKEQCLFVSPVSYFDSFKTKDKHALEYVLPDFQTSFLGYVRNPRKENVPLPEDAQIITLTDELFTIPETFFHPEISQITKPGIVEAILESLSMLPEIVRPLMVGNIVCTGGNFNLPNFAQRLAAELQRQLPTDWTCHVSVPEGDCALFGWEVMSQFAKTDSYRKARVTREEYYEHGPDWCTKHRFGYQNWI
B4: PUM1 589-701 (Homo sapiens, UniProt Q14671); sequence looked up; chain ISSSAAQAAVAAAAASANGAAGGLAGTTNGPFRPLGTQQPQPQPQQQPNNNLASSSFYGNNSLNSNSQSSSLFSQGSAQPANTSLGFGSSSSLGATLGSALGGFGTAVANSNT
B5: POL32 (Saccharomyces cerevisiae, UniProt P47110); sequence looked up; chain MDQKASYFINEKLFTEVKPVLFTDLIHHLKIGPSMAKKLMFDYYKQTTNAKYNCVVICCYKDQTIKIIHDLSNIPQQDSIIDCFIYAFNPMDSFIPYYDIIDQKDCLTIKNSYELKVSESSKIIERTKTLEEKSKPLVRPTARSKTTPEETTGRKSKSKDMGLRSTALLAKMKKDRDDKETSRQNELRKRKEENLQKINKQNPEREAQMKELNNLFVEDDLDTEEVNGGSKPNSPKETDSNDKDKNNDDLEDLLETTAEDSLMDVPKIQQTKPSETEHSKEPKSEEEPSSFIDEDGYIVTKRPATSTPPRKPSPVVKRALSSSKKQETPSSNKRLKKQGTLESFFKRKAK
B6: PSMA2 (Homo sapiens, UniProt P25787); chain MAERGYSFSLTTFSPSGKLVQIEYALAAVAGGAPSVGIKAANGVVLATEKKQKSILYDERSVHKVEPITKHIGLVYSGMGPDYRVLVHRARKLAQQYYLVYQEPIPTAQLVQRVASVMQEYTQSGGVRPFGVSLLICGWNEGRPYLFQSDPSGAYFAWKATAMGKNYVNGKTFLEKRYNEDLELEDAIHTAILTLKESFEGQMTEDNIEVGICNEAGFRRLTPTEVKDYLAAIA
B7: EFR3A 721-791 F728A (Homo sapiens, UniProt Q14156); chain SNTEEITAEALKKAIDTSGMEEQEKEKRRLVIEKFQKAPFEEIAAQCESKANLLHDRLAQILELTIRPPPS
B8: SNAPC2 (Homo sapiens, UniProt Q13487); chain MKPPPRRRAAPARYLGEVTGPATWSAREKRQLVRLLQARQGQPEPDATELARELRGRSEAEIRVFLQQLKGRVAREAIQKVHPGGLQGPRRREAQPPAPIEVWTDLAEKITGPLEEALAVAFSQVLTIAATEPVTLLHSKPPKPTQARGKPLLLSAPGGQEDPAPEIPSSAPAAPSSAPRTPDPAPEKPSESSAGPSTEEDFAVDFEKIYKYLSSVSRSGRSPELSAAESAVVLDLLMSLPEELPLLPCTALVEHMTETYLRLTAPQPIPAGGSLGPAAEGDGAGSKAPEETPPATEKAEHSELKSPWQAAGICPLNPFLVPLELLGRAATPAR
B9: YDJ1 residues 1-109 (Saccharomyces cerevisiae, UniProt P25491); chain GEFGSMVKETKFYDILGVPVTATDVEIKKAYRKCALKYHPDKNPSEEAAEKFKEASAAYEILSDPEKRDIYDQFGEDGLSGAGGAGGFPGGGFGFGDDIFSQFFGAGGAQRPRG
B10: HY5 S36D (Arabidopsis thaliana, UniProt O24646); sequence looked up; chain MQEQATSSLAASSLPSSSERSSSSAPHLEIKEGIEDDEEIRRVPEFGGEAVGKETSGRESGSATGQERTQATVGESQRKRGRTPAEKENKRLKRLLRNRVSAQQARERKKAYLSELENRVKDLENKNSELEERLSTLQNENQMLRHILKNTTGNKRGGGGGSNADASL
B11: GCN5 (Oryza sativa, UniProt Q338B9); sequence looked up; chain MDGLAAPSPSHSGATSGGGASHRKRKLPPSSLSDATADEDDDTTAPSSPSTSPSSPSRPSSPSSSHSDDDDDDSLHTFTAARLDGAPPSSSGRPPKPESSTVSAAAAAAAAAAAPKPDSASAAAGDGKEDPKGLFTDNIQTSGAYSAREEGLKREEEAGRLKFLCYSNDGVDEHMIWLVGLKNIFARQLPNMPKEYIVRLVMDRTHKSMMVIRNNIVVGGITYRPYTSQKFGEIAFCAITADEQVKGYGTRLMNHLKQHARDADGLTHFLTYADNNAVGYFVKQGFTKEITLDKERWQGYIKDYDGGILMECRIDQKLPYVDLATMIRRQRQAIDEKIRELSNCHIVYSGIDFQKKEAGIPRRTMKPEDIQGLREAGWTPDQWGHSKSRSAFSPDYSTYRQQLTNLMRSLLKNMNEHPDAWPFKEPVDSRDVPDYYDIIKDPIDLKTMSKRVESEQYYVTLEMFVADMKRMFSNAKTYNSPDTIYYKCASRLESFFSNKVASQLAQASTKN
B12: GATA2 (Homo sapiens, UniProt P23769); sequence looked up; chain MEVAPEQPRWMAHPAVLNAQHPDSHHPGLAHNYMEPAQLLPPDEVDVFFNHLDSQGNPYYANPAHARARVSYSPAHARLTGGQMCRPHLLHSPGLPWLDGGKAALSAAAAHHHNPWTVSPFSKTPLHPSAAGGPGGPLSVYPGAGGGSGGGSGSSVASLTPTAAHSGSHLFGFPPTPPKEVSPDPSTTGAASPASSSAGGSAARGEDKDGVKYQVSLTESMKMESGSPLRPGLATMGTQPATHHPIPTYPSYVPAAAHDYSSGLFHPGGFLGGPASSFTPKQRSKARSCSEGRECVNCGATATPLWRRDGTGHYLCNACGLYHKMNGQNRPLIKPKRRLSAARRAGTCCANCQTTTTTLWRRNANGDPVCNACGLYYKLHNVNRPLTMKKEGIQTRNRKMSNKSKKSKKGAECFEELSKCMQEKSSPFSAAALAGHMAPVGHLPPFSHSGHILPTPTPIHPSSSLSFGHPHPSSMVTAMG
B13: lpxC 1-305 (Escherichia coli, UniProt P0A725); chain MIKQRTLKRIVQATGVGLHTGKKVTLTLRPAPANTGVIYRRTDLNPPVDFPADAKSVRDTMLCTCLVNEHDVRISTVEHLNAALAGLGIDNIVIEVNAPEIPIMDGSAAPFVYLLLDAGIDELNCAKKFVRIKETVRVEDGDKWAEFKPYNGFSLDFTIDFNHPAIDSSNQRYAMNFSADAFMRQISRARTFGFMRDIEYLQSRGLCLGGSFDCAIVVDDYRVLNEDGLRFEDEFVRHKMLDAIGDLFMCGHNIIGAFTAYKSGHALNNKLLQAVLAKQEAWEYVTFQDDAELPLAFKAPSAVLA
B14: EIF3J/GST 103-258 (Homo sapiens); Alexa Fluor 546 label; sequence looked up; chain EEPKVLTPEEQLADKLRLKKLQEESDLELAKETFGVNNAVYGIDAMNPSSRDDFTEFGKLLKDKITQYEKSLYYASFLEVLVRDVCISLEIDDLKKITNSLTVLCSEKQKQEKQSKAKKKKKGVVPGGGLKATMKDDLADYGGYDGGYVQDYEDFM
Sequence of UniProt O94267 (whole entry, looked up): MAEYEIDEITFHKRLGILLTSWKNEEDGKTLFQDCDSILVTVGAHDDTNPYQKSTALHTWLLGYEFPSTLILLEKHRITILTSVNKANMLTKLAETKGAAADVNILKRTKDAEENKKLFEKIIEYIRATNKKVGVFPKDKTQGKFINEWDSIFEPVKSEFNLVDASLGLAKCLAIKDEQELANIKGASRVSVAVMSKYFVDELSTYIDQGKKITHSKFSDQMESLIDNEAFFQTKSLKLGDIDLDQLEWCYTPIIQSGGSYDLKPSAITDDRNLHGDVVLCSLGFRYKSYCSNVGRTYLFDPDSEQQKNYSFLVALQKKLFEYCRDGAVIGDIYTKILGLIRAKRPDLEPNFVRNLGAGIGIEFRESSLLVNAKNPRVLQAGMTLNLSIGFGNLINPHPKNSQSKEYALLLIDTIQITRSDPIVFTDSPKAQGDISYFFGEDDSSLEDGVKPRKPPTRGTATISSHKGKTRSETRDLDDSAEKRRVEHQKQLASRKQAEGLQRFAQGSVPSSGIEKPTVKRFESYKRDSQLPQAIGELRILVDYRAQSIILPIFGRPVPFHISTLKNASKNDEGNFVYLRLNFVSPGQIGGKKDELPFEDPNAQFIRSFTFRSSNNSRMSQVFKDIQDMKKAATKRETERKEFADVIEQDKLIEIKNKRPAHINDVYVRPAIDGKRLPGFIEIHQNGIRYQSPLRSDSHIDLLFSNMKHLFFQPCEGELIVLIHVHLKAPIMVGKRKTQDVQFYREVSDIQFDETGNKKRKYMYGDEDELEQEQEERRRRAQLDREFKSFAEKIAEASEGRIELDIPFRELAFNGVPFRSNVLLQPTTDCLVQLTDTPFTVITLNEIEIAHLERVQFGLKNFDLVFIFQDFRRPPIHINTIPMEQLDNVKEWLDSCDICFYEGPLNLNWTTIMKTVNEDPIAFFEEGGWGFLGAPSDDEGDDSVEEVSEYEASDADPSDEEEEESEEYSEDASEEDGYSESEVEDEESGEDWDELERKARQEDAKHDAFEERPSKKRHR
Sequence of UniProt Q9UBQ5 (whole entry, looked up): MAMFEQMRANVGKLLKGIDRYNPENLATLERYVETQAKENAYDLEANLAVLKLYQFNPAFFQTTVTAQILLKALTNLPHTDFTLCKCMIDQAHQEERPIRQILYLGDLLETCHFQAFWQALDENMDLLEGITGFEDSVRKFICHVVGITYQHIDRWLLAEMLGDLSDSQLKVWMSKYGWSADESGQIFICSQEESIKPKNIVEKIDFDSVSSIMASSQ
Sequence of UniProt P13382 (whole entry, looked up): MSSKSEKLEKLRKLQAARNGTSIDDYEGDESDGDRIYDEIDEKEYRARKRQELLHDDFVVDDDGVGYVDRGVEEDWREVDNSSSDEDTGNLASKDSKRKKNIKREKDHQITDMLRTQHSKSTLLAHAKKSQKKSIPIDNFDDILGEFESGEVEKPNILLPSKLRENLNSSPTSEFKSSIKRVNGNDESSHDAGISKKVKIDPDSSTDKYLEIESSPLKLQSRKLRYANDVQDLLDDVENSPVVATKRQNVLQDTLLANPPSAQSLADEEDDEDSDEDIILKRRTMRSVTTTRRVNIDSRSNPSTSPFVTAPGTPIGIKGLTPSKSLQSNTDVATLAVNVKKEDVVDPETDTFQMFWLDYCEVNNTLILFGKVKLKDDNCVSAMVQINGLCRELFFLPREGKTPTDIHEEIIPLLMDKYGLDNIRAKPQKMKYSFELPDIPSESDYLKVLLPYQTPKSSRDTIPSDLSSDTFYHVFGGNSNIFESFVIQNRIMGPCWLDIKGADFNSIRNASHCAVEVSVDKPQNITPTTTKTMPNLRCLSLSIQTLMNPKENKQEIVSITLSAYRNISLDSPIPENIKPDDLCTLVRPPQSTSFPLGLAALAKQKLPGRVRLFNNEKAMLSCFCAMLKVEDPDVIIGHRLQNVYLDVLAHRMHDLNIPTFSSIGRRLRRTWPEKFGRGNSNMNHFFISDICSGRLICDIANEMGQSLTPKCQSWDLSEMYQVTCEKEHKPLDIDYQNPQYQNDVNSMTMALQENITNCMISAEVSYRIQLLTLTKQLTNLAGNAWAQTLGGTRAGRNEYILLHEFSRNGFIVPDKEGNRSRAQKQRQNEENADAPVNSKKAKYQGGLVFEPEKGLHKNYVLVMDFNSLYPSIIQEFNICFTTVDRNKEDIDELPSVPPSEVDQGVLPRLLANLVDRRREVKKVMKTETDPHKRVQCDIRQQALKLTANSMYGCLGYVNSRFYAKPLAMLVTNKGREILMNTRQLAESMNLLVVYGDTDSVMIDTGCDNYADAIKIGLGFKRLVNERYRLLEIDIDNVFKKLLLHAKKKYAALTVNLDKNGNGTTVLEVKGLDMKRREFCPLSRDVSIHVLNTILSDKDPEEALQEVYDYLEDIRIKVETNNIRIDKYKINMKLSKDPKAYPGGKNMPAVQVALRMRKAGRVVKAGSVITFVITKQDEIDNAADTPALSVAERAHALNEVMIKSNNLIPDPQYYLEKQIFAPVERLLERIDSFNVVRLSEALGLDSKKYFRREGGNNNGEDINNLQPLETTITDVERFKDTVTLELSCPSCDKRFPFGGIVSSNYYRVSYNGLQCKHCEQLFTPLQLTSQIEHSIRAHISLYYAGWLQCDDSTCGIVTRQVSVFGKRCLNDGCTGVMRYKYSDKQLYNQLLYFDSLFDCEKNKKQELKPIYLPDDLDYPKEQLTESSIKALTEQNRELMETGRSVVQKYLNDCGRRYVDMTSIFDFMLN
Sequence of UniProt P49642 (whole entry, looked up): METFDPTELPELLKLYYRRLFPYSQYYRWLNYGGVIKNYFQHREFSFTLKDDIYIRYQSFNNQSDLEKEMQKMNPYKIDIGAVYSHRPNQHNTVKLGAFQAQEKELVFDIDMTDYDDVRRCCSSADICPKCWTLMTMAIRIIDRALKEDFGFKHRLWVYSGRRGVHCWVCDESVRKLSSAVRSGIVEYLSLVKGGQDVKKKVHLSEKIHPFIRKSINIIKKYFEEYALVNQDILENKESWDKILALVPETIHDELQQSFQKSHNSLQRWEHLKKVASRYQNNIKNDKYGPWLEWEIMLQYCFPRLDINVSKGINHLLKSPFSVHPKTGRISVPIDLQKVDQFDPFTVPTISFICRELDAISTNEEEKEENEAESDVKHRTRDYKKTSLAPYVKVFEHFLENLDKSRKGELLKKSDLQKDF
Sequence of UniProt P15436 (whole entry, looked up): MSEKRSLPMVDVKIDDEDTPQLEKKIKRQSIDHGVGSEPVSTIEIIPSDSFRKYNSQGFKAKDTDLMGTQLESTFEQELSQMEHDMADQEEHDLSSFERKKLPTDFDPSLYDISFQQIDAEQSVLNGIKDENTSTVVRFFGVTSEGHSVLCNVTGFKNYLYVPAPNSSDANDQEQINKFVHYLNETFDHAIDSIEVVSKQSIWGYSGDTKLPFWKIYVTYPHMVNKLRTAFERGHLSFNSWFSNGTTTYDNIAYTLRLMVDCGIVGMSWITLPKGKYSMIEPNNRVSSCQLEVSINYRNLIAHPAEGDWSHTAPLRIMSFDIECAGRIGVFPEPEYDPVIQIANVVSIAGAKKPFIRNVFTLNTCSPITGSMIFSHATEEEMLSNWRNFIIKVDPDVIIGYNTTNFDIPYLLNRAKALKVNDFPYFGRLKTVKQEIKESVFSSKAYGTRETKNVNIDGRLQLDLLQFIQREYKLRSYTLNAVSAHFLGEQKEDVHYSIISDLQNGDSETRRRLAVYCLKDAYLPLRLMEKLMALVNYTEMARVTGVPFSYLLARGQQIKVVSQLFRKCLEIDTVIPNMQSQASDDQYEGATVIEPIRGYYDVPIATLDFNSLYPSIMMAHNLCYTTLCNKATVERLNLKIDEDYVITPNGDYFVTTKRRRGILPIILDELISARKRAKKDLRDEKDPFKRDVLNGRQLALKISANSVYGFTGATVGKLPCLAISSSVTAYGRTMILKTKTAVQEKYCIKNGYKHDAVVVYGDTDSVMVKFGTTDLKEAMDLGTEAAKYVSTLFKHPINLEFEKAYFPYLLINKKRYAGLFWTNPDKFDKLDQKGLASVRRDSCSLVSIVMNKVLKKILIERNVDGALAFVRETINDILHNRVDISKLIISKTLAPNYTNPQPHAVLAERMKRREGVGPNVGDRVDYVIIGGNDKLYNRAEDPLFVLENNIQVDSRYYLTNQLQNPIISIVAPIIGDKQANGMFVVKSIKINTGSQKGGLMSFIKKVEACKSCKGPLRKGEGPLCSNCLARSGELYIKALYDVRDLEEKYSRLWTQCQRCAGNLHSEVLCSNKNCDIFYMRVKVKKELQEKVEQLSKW
Sequence of UniProt Q8L6Y1 (whole entry, looked up): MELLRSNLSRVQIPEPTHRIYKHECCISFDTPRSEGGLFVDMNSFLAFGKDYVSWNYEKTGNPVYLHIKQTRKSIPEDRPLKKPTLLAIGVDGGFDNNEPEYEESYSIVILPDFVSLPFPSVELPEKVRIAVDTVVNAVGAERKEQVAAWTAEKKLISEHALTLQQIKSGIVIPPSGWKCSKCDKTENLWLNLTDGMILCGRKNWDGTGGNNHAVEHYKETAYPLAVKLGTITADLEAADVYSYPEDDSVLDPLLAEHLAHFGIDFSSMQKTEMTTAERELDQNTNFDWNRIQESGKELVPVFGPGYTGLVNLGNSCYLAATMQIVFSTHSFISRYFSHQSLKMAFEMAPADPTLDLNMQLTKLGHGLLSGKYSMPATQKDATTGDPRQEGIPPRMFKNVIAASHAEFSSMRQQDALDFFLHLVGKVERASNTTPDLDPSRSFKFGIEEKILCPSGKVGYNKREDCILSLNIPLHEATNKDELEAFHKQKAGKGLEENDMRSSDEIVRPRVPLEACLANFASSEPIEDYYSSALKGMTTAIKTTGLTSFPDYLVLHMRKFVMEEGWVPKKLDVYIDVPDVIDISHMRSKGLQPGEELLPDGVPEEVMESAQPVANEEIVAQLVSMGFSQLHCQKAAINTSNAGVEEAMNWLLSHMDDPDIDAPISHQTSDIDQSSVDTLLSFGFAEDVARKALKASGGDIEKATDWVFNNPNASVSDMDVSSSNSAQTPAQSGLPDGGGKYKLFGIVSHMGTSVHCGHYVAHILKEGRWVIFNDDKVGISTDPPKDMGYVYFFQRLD

| Molecule | partner | test | test system | setting | binding |
| --- | --- | --- | --- | --- | --- |
| B1 (Pri1) | POL1 (Saccharomyces cerevisiae, UniProt P13382) | mass photometry |  |  | binds |
| B2 (PRIM2 1-265) | PRIM1 (Homo sapiens, UniProt P49642) | SEC-SAXS |  |  | binds |
| NGVTKTALEPRARVEKDYGK (gld-3 860-879 I866A (Caenorhabditis elegans, UniProt Q95ZK7); sequence looked up) | fbf-2 164-575 (Caenorhabditis elegans, UniProt Q09312) | fluorescence polarisation | peptide |  | binds |
| B3 (ARP6) | VPS72 (Saccharomyces cerevisiae, UniProt Q03388) | cryo-EM |  |  | binds |
| B4 (PUM1 589-701) | CNOT1/CNOT2/CNOT3 NOT module 1833-2361 | pull-down |  |  | binds |
| B5 (POL32) | POL3 (Saccharomyces cerevisiae, UniProt P15436) | mass photometry |  |  | binds |
| B6 (PSMA2) | T1, PSMG1/PSMG2 heterodimer (Homo sapiens) | cryo-EM |  |  | binds |
| B7 (EFR3A 721-791 F728A) | TTC7B/FAM126A FAM126A 1-308 (Homo sapiens) | BLI |  |  | binds |
| B8 (SNAPC2) | SNAPC4 (Homo sapiens, UniProt Q5SXM2) | cross-linking |  |  | binds |
| nusG KOW domain Q177M, selenomethionine (Escherichia coli) (sequence not shown) | rho fragment (Escherichia coli) | crystal structure |  |  | binds |
| B9 (YDJ1 residues 1-109) | SSA1 T201A (Saccharomyces cerevisiae, UniProt P10591) | NMR titration |  | added: ATP | binds |
| pob3 (Schizosaccharomyces pombe, UniProt O94529) | spt16 (Schizosaccharomyces pombe, UniProt O94267) | native gel |  |  | binds |
| SKKNNAASELAAPYSSYVSQIRKHKRVSPNAAPR (Nup60 285-318 N296A (Saccharomyces cerevisiae, UniProt P39705); sequence looked up) | NUP85/SEH1 Nup85 1-564 (Saccharomyces cerevisiae) | pull-down | peptide |  | binds |
| B10 (HY5 S36D) | UBP14 (Arabidopsis thaliana, UniProt Q8L6Y1) | pull-down |  |  | binds |
| GEYSSDFLTPEFVKFSMDLTNTEI (NR4A2 28-51 (Homo sapiens, UniProt P43354); sequence looked up) | Ncoa1 260-385 (Mus musculus, UniProt P70365) | NMR |  | in cis | binds |
| GDYSKRVYQGVRVKHTVKDLLAEKRSGQTSNSRLNGSVSSS (POU2AF2 6-46 (Homo sapiens, UniProt Q8IXP5); sequence looked up) | POU2F3 183-341 (Homo sapiens, UniProt Q9UKI9-1) | crystal structure |  |  | binds |
| B11 (GCN5) | PK1 (Oryza sativa japonica, UniProt Q2RAK2) | pull-down |  |  | binds |
| B12 (GATA2) | ARID1A 1111-1634 (Homo sapiens, UniProt O14497) | bead binding, confocal imaging |  |  | binds |
| nap1l1 (Xenopus laevis, UniProt Q4U0Y4-2) | H2A.S2/H2B full length heterodimer (Xenopus laevis) | pull-down |  |  | binds |
| B13 (lpxC 1-305) | lapB 21-389 T154A (Escherichia coli, UniProt P0AB58) | pull-down |  |  | binds |
| B14 (EIF3J/GST 103-258) | EIF3K (Homo sapiens, UniProt Q9UBQ5) | EMSA |  |  | binds |

A few entries again:
| Molecule | partner | test | test system | setting | binding |
| --- | --- | --- | --- | --- | --- |
| B10 (HY5 S36D) | UBP14 (Arabidopsis thaliana, UniProt Q8L6Y1) | pull-down |  |  | binds |
| GEYSSDFLTPEFVKFSMDLTNTEI (NR4A2 28-51 (Homo sapiens, UniProt P43354); sequence looked up) | Ncoa1 260-385 (Mus musculus, UniProt P70365) | NMR |  | in cis | binds |
